Published values pooled from the literature.
Compare with care: the assays were run in different laboratories. Numbers after ± are the reported error.
ADCYAP1R1: Pituitary adenylate cyclase-activating polypeptide type I receptor (ADCYAP1R1, Homo sapiens, UniProt P41586)
UniProt P41586, sequence (whole entry, unmodified, looked up): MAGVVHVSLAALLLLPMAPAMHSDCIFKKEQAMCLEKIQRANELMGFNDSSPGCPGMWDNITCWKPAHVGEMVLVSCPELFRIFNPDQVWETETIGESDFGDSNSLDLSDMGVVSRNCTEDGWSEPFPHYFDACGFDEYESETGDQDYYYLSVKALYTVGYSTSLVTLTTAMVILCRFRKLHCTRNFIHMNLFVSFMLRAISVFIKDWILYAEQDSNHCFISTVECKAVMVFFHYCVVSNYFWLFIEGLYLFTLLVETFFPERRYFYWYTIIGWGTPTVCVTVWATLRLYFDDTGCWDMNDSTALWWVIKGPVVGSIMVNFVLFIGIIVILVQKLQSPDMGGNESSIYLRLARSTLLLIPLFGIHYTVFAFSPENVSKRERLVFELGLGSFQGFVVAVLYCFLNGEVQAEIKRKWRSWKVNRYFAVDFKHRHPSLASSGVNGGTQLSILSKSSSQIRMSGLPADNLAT
sdiA: Regulatory protein SdiA (sdiA, Escherichia coli, UniProt P07026)
UniProt P07026, sequence (whole entry, looked up): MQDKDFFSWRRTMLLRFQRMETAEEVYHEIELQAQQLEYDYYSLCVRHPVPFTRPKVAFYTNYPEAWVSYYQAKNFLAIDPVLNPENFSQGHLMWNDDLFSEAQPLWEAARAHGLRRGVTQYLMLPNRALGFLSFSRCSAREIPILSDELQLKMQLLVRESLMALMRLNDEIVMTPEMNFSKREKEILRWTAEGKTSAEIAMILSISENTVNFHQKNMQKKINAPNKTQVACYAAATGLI
UniProt P11712, sequence (whole entry, looked up): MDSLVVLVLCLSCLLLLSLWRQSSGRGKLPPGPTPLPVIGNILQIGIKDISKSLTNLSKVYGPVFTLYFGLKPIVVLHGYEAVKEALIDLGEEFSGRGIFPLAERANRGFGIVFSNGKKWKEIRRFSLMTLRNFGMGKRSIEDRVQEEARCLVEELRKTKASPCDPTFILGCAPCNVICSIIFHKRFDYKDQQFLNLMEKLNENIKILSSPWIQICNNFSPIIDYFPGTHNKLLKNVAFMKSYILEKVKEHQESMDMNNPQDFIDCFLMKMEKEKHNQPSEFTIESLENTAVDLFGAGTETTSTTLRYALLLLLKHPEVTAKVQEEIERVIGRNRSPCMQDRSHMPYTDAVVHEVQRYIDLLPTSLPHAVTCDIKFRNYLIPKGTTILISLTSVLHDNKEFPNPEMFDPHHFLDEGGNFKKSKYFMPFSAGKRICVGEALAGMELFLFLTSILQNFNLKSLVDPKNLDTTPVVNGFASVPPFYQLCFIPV
UniProt P21554, sequence (whole entry, unmodified, looked up): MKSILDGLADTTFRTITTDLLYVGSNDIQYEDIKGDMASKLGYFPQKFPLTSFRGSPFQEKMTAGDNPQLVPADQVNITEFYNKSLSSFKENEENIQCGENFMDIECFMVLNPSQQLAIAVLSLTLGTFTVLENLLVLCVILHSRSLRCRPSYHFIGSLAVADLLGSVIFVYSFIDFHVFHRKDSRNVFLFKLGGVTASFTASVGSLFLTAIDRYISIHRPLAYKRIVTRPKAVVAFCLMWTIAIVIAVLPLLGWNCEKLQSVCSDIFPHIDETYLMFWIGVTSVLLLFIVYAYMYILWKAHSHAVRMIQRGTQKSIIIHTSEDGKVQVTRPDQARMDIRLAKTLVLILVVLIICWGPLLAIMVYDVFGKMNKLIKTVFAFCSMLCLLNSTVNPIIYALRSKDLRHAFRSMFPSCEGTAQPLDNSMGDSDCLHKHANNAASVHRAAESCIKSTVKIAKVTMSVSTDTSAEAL
UniProt P41143, sequence (whole entry, unmodified, looked up): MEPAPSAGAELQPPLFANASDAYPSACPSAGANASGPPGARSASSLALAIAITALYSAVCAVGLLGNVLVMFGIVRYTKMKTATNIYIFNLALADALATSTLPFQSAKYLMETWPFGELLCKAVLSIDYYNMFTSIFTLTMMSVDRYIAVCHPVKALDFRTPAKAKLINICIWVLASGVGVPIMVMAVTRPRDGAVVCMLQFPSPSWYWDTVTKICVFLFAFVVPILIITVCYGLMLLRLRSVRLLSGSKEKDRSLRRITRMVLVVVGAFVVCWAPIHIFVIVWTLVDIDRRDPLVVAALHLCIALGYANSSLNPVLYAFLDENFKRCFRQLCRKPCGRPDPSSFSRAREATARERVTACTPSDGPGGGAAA
UniProt O95835, sequence (whole entry, looked up): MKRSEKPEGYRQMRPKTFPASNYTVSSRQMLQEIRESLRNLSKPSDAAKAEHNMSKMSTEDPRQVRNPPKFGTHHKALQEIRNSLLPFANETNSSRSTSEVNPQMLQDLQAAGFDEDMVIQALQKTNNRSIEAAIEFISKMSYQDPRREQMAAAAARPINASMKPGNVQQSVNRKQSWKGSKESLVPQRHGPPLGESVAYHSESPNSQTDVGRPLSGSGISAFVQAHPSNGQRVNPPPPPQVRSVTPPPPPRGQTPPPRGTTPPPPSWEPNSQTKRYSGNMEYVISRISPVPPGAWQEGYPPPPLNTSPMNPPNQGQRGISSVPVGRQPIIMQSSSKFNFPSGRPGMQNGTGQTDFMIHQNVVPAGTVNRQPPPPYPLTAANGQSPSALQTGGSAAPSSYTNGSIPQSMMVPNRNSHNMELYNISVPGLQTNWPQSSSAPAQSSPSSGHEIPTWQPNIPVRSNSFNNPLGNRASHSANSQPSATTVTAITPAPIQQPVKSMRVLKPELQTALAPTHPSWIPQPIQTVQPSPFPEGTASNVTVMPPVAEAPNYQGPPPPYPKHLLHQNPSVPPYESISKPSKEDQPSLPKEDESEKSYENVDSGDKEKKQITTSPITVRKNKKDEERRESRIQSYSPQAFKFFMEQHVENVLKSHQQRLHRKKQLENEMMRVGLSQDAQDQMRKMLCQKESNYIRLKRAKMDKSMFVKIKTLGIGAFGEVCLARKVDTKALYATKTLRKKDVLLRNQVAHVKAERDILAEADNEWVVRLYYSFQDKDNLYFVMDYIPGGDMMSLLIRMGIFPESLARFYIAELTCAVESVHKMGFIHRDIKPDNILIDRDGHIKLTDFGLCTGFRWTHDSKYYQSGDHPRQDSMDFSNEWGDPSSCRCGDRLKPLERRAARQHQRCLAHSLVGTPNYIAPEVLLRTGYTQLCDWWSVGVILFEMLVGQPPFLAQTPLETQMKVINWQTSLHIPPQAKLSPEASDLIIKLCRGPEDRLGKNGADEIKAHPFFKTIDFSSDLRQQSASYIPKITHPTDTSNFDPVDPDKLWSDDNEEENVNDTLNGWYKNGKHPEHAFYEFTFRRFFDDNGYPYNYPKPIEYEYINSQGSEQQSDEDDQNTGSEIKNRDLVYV
UniProt P50391, sequence (whole entry, looked up): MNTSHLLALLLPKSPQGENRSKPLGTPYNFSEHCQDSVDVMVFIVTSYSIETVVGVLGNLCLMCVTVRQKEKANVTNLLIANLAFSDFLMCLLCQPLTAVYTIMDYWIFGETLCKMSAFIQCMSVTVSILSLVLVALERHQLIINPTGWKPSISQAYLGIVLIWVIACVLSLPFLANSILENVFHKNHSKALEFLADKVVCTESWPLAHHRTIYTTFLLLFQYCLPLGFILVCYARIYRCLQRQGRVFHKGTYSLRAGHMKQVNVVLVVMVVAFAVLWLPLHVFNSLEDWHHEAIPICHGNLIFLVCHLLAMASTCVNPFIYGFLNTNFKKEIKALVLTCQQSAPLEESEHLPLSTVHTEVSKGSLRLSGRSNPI

SMILES	tested on	assay	test system	conditions	scale	measurement	value
Cc1ccc(N2CC3CC(C2)N3)cc1C(=O)NC1(c2ccc3c4c(cccc24)C(=O)N3C)CC1	Cytochrome P450 2C9 (CYP2C9, Homo sapiens, UniProt P11712)	enzyme activity, inhibitor				IC50	> 50000 nM
CN(C)[C@H]1C[C@@]23CC[C@@]4(O2)C(=CC[C@]2(C)[C@@H](c5ccc6ccncc6c5)CC[C@H]24)C=C3[C@@H](O)[C@@H]1O	LATS1 (Homo sapiens, UniProt O95835)	ATP probe labelling, inhibitor, KiNativ profiling		0.1 µM		inhibition	1%
CSCC[C@H](NC(=O)[C@H](CCC(N)=O)NC(=O)[C@H](CCCCN)NC(=O)[C@H](CCCNC(=N)N)NC(=O)[C@H](Cc1ccc(O)cc1)NC(=O)[C@H](CCCNC(=N)N)NC(=O)[C@H](CO)NC(=O)[C@H](Cc1ccc(O)cc1)NC(=O)[C@H](CO)NC(=O)[C@H](CC(=O)O)NC(=O)[C@@H](NC(=O)[C@@H](N)Cc1ccccc1)[C@@H](C)O)C(=O)N[C@@H](C)C(=O)N[C@H](C(=O)N[C@@H](CCCCN)C(=O)N[C@@H](CCCCN)C(=O)N[C@@H](Cc1ccc(O)cc1)C(=O)N[C@@H](CC(C)C)C(=O)N[C@@H](C)C(=O)N[C@@H](C)C(=O)N[C@H](C(=O)N[C@@H](CC(C)C)C(=O)NCC(=O)N[C@@H](CCCCN)C(=O)N[C@@H](CCCNC(=N)N)C(=O)N[C@@H](Cc1ccc(O)cc1)C(=O)N[C@@H](CCCCN)C(=O)N[C@@H](CCC(N)=O)C(=O)N[C@@H](CCCNC(=N)N)C(=O)N[C@H](C(=O)N[C@@H](CCCCN)C(=O)N[C@@H](CC(N)=O)C(=O)N[C@@H](CCCCn1cc(C[C@H](NC(=O)CNC(=O)[C@H](CO)NC(=O)[C@H](CCCNC(=N)N)NC(=O)[C@H](CO)NC(=O)[C@H](CC(C)C)NC(=O)[C@H](CC(C)C)NC(=O)CNC(=O)[C@H](C)NC(=O)[C@H](CC(C)C)NC(=O)[C@H](CCCNC(=N)N)NC(=O)[C@H](Cc2c[nH]cn2)NC(=O)[C@@H](NC(=O)[C@@H](N)C(C)C)[C@@H](C)O)C(=O)N[C@H](C(=O)N[C@H](C(=O)N[C@@H](CCCCN)C(=O)N[C@@H](CC(N)=O)C(=O)N[C@@H](CC(N)=O)C(=O)N[C@@H](Cc2ccccc2)C(=O)N[C@H](C(=O)N2CCC[C@H]2C(=O)N[C@H](C(=O)N[C@@H](CC(N)=O)C(=O)N[C@H](C(=O)NCC(=O)N[C@@H](CO)C(=O)N[C@@H](CCCCN)C(=O)N[C@@H](C)C(=O)N[C@@H](Cc2ccccc2)C(N)=O)C(C)C)[C@@H](C)O)C(C)C)C(C)C)C(C)C)nn1)C(N)=O)C(C)C)C(C)C)C(C)C	ADCYAP1R1	cAMP, antagonist				Kb	> 10000 nM
Cc1cc(O)cc(C)c1C[C@H](N)C(=O)N[C@H](CCCNC(=N)N)C(=O)N[C@@H](Cc1ccccc1)C(=O)N(C)CC(=O)N(C)Cc1cc(C(F)(F)F)cc(C(F)(F)F)c1	OPRD1 (Homo sapiens, UniProt P41143, H278A)	agonist				EC50	23 nM
CC(C)(C)C(=O)OCOP(=O)(OCOC(=O)C(C)(C)C)C1CCCN(O)C1=O (stereo not drawn)	EKVX					TGI	12500 nM
Cc1ccc2c(C(C[N+](=O)[O-])c3cccs3)c(-c3ccccc3)[nH]c2c1 (stereo not drawn)	CNR1 (Homo sapiens, UniProt P21554, Y397F)	G protein activation, agonist, BRET				EC50	70 nM
COc1ccccc1-c1n[nH]c2nc(NC3CCN(C(=O)Cc4ccc(F)cc4F)CC3)ncc12		bead binding, competition bead pull-down, refers to: LINJ.30.3000	Leishmania donovani axenic amastigote extract	10 µM	baseline: vehicle	relative abundance	1.03
CSCC[C@H](NC(=O)[C@H](CCC(N)=O)NC(=O)[C@H](CCCCN)NC(=O)[C@H](CCCNC(=N)N)NC(=O)[C@H](Cc1ccc(O)cc1)NC(=O)[C@H](CCCNC(=N)N)NC(=O)[C@H](CO)NC(=O)[C@H](Cc1ccc(O)cc1)NC(=O)[C@H](CO)NC(=O)[C@H](CC(=O)O)NC(=O)[C@@H](NC(=O)[C@@H](N)Cc1ccccc1)[C@@H](C)O)C(=O)N[C@@H](C)C(=O)N[C@H](C(=O)N[C@@H](CCCCN)C(=O)N[C@@H](CCCCn1cc(C[C@H](NC(=O)CNC(=O)[C@H](CO)NC(=O)[C@H](CCCNC(=N)N)NC(=O)[C@H](CO)NC(=O)[C@H](CC(C)C)NC(=O)[C@H](CC(C)C)NC(=O)CNC(=O)[C@H](C)NC(=O)[C@H](CC(C)C)NC(=O)[C@H](CCCNC(=N)N)NC(=O)[C@H](Cc2c[nH]cn2)NC(=O)[C@@H](NC(=O)[C@@H](N)C(C)C)[C@@H](C)O)C(=O)N[C@H](C(=O)N[C@H](C(=O)N[C@@H](CCCCN)C(=O)N[C@@H](CC(N)=O)C(=O)N[C@@H](CC(N)=O)C(=O)N[C@@H](Cc2ccccc2)C(=O)N[C@H](C(=O)N2CCC[C@H]2C(=O)N[C@H](C(=O)N[C@@H](CC(N)=O)C(=O)N[C@H](C(=O)NCC(=O)N[C@@H](CO)C(=O)N[C@@H](CCCCN)C(=O)N[C@@H](C)C(=O)N[C@@H](Cc2ccccc2)C(N)=O)C(C)C)[C@@H](C)O)C(C)C)C(C)C)C(C)C)nn1)C(=O)N[C@@H](Cc1ccc(O)cc1)C(=O)N[C@@H](CC(C)C)C(=O)N[C@@H](C)C(=O)N[C@@H](C)C(=O)N[C@H](C(=O)N[C@@H](CC(C)C)C(=O)NCC(=O)N[C@@H](CCCCN)C(=O)N[C@@H](CCCNC(=N)N)C(=O)N[C@@H](Cc1ccc(O)cc1)C(=O)N[C@@H](CCCCN)C(=O)N[C@@H](CCC(N)=O)C(=O)N[C@@H](CCCNC(=N)N)C(=O)N[C@H](C(=O)N[C@@H](CCCCN)C(=O)N[C@@H](CC(N)=O)C(=O)N[C@@H](CCCCN)C(N)=O)C(C)C)C(C)C)C(C)C	ADCYAP1R1 (Homo sapiens, UniProt P41586, del89-109)	cAMP accumulation, antagonist		added: PACAP-27		Kb	257 nM
CC(=O)N[C@@H](CCCNC(=N)N)C(=O)N[C@@H](Cc1ccc(O)cc1)C(=O)N[C@@H](CCCNC(=N)N)C(=O)N[C@@H](CC(C)C)C(=O)N[C@@H](CCCNC(=N)NC(=O)NCCCCN)C(=O)N[C@@H](Cc1ccc(O)cc1)C(N)=O	NPY4R (Homo sapiens, UniProt P50391)	calcium signal, antagonist				Kb	847 nM
O=C(Cc1cccc(Br)c1)N[C@H]1CCOC1=O	sdiA					EC50	1.7 nM
O=C1NC2(CC2)COc2ncc(F)cc2[C@H]2COCCN2c2ccn3ncc1c3n2			Sprague-Dawley rat, male, testes	oral, 10 mg/kg/day, 4 weeks dosing, end of recovery		organ-to-brain weight ratio	157 ± 10%
CCCCCCC(=O)N[C@H]1CCOC1=O	sdiA					EC50	2.64 nM
CSCC[C@H](NC(=O)[C@H](CCC(N)=O)NC(=O)[C@H](CCCCN)NC(=O)[C@H](CCCNC(=N)N)NC(=O)[C@H](Cc1ccc(O)cc1)NC(=O)[C@H](CCCNC(=N)N)NC(=O)[C@H](CO)NC(=O)[C@H](Cc1ccc(O)cc1)NC(=O)[C@H](CO)NC(=O)[C@H](CC(=O)O)NC(=O)[C@@H](NC(=O)[C@@H](N)Cc1ccccc1)[C@@H](C)O)C(=O)N[C@@H](C)C(=O)N[C@H](C(=O)N[C@@H](CCCCN)C(=O)N[C@@H](CCCCN)C(=O)N[C@@H](Cc1ccc(O)cc1)C(=O)N[C@@H](CC(C)C)C(=O)N[C@@H](C)C(=O)N[C@@H](C)C(=O)N[C@H](C(=O)N[C@@H](CC(C)C)C(=O)NCC(=O)N[C@@H](CCCCN)C(=O)N[C@@H](CCCNC(=N)N)C(=O)N[C@@H](Cc1ccc(O)cc1)C(=O)N[C@@H](CCCCN)C(=O)N[C@@H](CCC(N)=O)C(=O)N[C@@H](CCCCn1cc(C[C@H](NC(=O)CNC(=O)[C@H](CO)NC(=O)[C@H](CCCNC(=N)N)NC(=O)[C@H](CO)NC(=O)[C@H](CC(C)C)NC(=O)[C@H](CC(C)C)NC(=O)CNC(=O)[C@H](C)NC(=O)[C@H](CC(C)C)NC(=O)[C@H](CCCNC(=N)N)NC(=O)[C@H](Cc2c[nH]cn2)NC(=O)[C@@H](NC(=O)[C@@H](N)C(C)C)[C@@H](C)O)C(=O)N[C@H](C(=O)N[C@H](C(=O)N[C@@H](CCCCN)C(=O)N[C@@H](CC(N)=O)C(=O)N[C@@H](CC(N)=O)C(=O)N[C@@H](Cc2ccccc2)C(=O)N[C@H](C(=O)N2CCC[C@H]2C(=O)N[C@H](C(=O)N[C@@H](CC(N)=O)C(=O)N[C@H](C(=O)NCC(=O)N[C@@H](CO)C(=O)N[C@@H](CCCCN)C(=O)N[C@@H](C)C(=O)N[C@@H](Cc2ccccc2)C(N)=O)C(C)C)[C@@H](C)O)C(C)C)C(C)C)C(C)C)nn1)C(=O)N[C@H](C(=O)N[C@@H](CCCCN)C(=O)N[C@@H](CC(N)=O)C(=O)N[C@@H](CCCCN)C(N)=O)C(C)C)C(C)C)C(C)C	ADCYAP1R1	cAMP, antagonist				Kb	> 10000 nM
CCCCCCCCCC(=O)CC(=O)NC1CCSC1=O (stereo not drawn)	sdiA					EC50	0.8 nM
CSCC[C@@H]1NC(=O)[C@H](Cc2ccccc2)NC(=O)[C@H](NC(=O)[C@H](C)N)CSC(=O)[C@H](C(C)C)NC(=O)[C@H](Cc2ccccc2)NC1=O	Histidine kinase AgrC (Listeria monocytogenes, UniProt A8E0G3)					EC50	106 nM

Some of these lines once more:
SMILES	tested on	assay	test system	conditions	scale	measurement	value
Cc1ccc(N2CC3CC(C2)N3)cc1C(=O)NC1(c2ccc3c4c(cccc24)C(=O)N3C)CC1	Cytochrome P450 2C9 (CYP2C9, Homo sapiens, UniProt P11712)	enzyme activity, inhibitor				IC50	> 50000 nM
